Assay results pooled from the literature.
Numbered parts are unrelated; each lists some results of a single study.

Study 1
Target: Ras GTPase-activating protein-binding protein 1, full length (G3BP1, Homo sapiens, UniProt Q13283)
Sequence of UniProt Q13283 (whole entry, looked up): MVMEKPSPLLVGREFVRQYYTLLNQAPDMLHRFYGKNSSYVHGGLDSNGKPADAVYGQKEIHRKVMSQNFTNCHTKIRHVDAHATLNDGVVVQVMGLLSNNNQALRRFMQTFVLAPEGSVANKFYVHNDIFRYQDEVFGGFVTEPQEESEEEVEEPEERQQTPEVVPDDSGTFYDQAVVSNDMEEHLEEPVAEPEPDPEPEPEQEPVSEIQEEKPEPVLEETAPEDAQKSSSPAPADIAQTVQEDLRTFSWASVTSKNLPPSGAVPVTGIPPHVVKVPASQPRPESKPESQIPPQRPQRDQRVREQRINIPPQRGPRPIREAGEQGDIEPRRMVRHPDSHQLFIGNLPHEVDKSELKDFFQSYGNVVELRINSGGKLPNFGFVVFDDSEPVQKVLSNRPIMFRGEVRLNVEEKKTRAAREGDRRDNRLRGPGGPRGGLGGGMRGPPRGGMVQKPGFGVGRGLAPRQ
Technique: RNA Bind-n-Seq
Form: RNA
Sample: in vitro
Concentration: 200 nM
Notes: whole 134-nt RNA, ends assumed
With: 150 mM LiCl
Reference: input library
Reading: higher = stronger binding
Library: 7-deaza-guanosine replaces G
Constant ends, left off below: GGGAGUUCUACAGUCCGACGAUC … UGGAAUUCUCGGGUGUCAAGG
For `CAAGUCCUGUGCUACACAUCGUAUGUACCGAAUCGGGUUUUGGGUUUUGGUUUUGGAAAGUAUUAUGUUACGCCGUUCGGAUCUGCACUU`, the log2 enrichment was -1.03.
With `UCCUCAAGUCCUGUGCUACACAUCGUAUGUACCGAAUCGGUGGAGGUUUGGAAAGUAUUAUGUUACGCCGUUCGGAUCUGCACUUCCAGC` the log2 enrichment was -0.933.
For `CUGUGCUACACAUCGUAUGUACCGAAUCGGGAAAAAAAGGGAAAAAAAGGGAAAAAAAGGGGAAAGUAUUAUGUUACGCCGUUCGGAUCU`, the log2 enrichment was 0.26.
For `GCAGGAAGUAAAAACAAAUGGAAAUACUUCGGAUAGUGGCAGGGGUGGGGGUUGCUAAGGAAAGGGUGGGAUGGGAGUGGGUAAAGAGUU`, the log2 enrichment was 0.459.
For `AAGUCCUGUGCUACACAUCGUAUGUACCGAAUCGGUUUUGGGUUUUGGGGUUUUGGGAAAGUAUUAUGUUACGCCGUUCGGAUCUGCACU`, the log2 enrichment was -0.0504.
The log2 enrichment of `CCUGUGCUACACAUCGUAUGUACCGAAUCGGGUUUUUUUGGUUUUUUUGGUUUUUUUGGGAAAGUAUUAUGUUACGCCGUUCGGAUCUGC` is reported as 0.117.
`UCAAGUCCUGUGCUACACAUCGUAUGUACCGAAUCGGUUUGGAAAAAAAGGUGGAAAGUAUUAUGUUACGCCGUUCGGAUCUGCACUUCC` gave a log2 enrichment of -0.7.
`GCAGGAAGUAAAAACAAAUGGAAAUGCUUCGGAUAGUGGCAGGGGUGGGGGUUGCUAAGGAAAGGGUGGGAUGGGAAAAGGUAAAGAGUU` gave a log2 enrichment of -0.0891.

Study 2
Target: RNA binding protein fox-1 homolog 2, RRM domain, GST-SBP tag (RBFOX2, Homo sapiens, UniProt O43251-10, residues 100-194)
Technique: RNA Bind-n-Seq
Form: RNA
Sample: in vitro
Concentration: 365 nM
Notes: natural RNA segment, single round, ends assumed
Reference: no-protein control
Reading: higher = stronger binding
Constant ends, left off below: GGGAGUUCUACAGUCCGACGAUC … UGGAAUUCUCGGGUGCCAA
Construct (chain): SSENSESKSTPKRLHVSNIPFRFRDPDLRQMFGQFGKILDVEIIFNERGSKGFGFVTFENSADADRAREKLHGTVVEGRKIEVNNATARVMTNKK
For `AUGAUCUUAAAGAUAUGUUUAAGUUAAUGGAUGUAAUGCAGGGUUCCUACACUGUAUUUUGGCGCAUGUUGGUGGCCCUCUGUGCCCUAGAUAUAUGCACACAGGGUGCA`, “RBNS enrichment (R)” read 9.05.
Under “RBNS enrichment (R)”, `AAAGUCUCACCCCUUUGUCUACGUUGCUUCCCCAAACCAUGAGCAGAGGGACUUCGAUGCCAAACCAGACUCGGGUCCCCUCCUGCUUCCCUUCCCCACUUAUCCCCCAA` is recorded as 0.376.
`UACAUAAAUGAGUUGAUGAUAUUUAACCAGUUUUUAUAAACUUCAUUUAGGUCUCUAAACACAGACUUUUUAAAUUGCAACUGUAAAUAUGAAAUGGUCAUCACAUCUGA`: “RBNS enrichment (R)” 0.331.
`UACAGACUCUCUGCUCUGUAUGGCGCCGCCUGCCAUGUCUGUCUUGGUGACUAUCCUGCCUUAAUCACUUUGCUUUAGGGCAACUCAUGGUGAUCUCUUCCAAGAUCUGU` — result for “RBNS enrichment (R)”: 0.281.
Under “RBNS enrichment (R)”, `UGUAGAUUGGUGUGAAUUGCUAAGGGAAAAACCUUAUGCAGAGAAAAGUUUUUGACUGGAAAUACACUGUUUUGCAUCAAGCUGGAGUACUGGAUGGAAAACUCUACAAU` is recorded as 1.37.
`GACUGCAGGAUCAGUCUCAUUCUUCUACUAGGUGCAUGGACUCCCUUCCCACUGACUUACACUCGUCUAUCUAGAAUACAGGUUGUCCAGGCAGCUGGUCACUUACCAGG` — result for “RBNS enrichment (R)”: 0.531.
For `AUUGUAAAUACCAUAUGAAAUCCUUUUUGAUUAAAGCUAUUCAAAAUAAAAAAUUUUAAUGAAUUAAUAUGUCAAUAUUUUUUCCUGGAUCCUUACACACUUGUUUGAUU`, “RBNS enrichment (R)” read 0.776.
Under “RBNS enrichment (R)”, `AAACUUCCAUAAGGGGCAGCAGUUGAGGUUGGGUAGUGCUGGGCCCAGCUGAGCUGGCCUGGGAAAUGGAGCCCACUGUCUGUGUCUCUUUUCUCCCACCUCAUCCUUCU` is recorded as 0.45.

Study 3
Target: Sal-like protein 4, full length isoform A (SALL4, Homo sapiens, UniProt Q9UJQ4, residues 1-1053)
Sequence of UniProt Q9UJQ4 (whole entry, looked up): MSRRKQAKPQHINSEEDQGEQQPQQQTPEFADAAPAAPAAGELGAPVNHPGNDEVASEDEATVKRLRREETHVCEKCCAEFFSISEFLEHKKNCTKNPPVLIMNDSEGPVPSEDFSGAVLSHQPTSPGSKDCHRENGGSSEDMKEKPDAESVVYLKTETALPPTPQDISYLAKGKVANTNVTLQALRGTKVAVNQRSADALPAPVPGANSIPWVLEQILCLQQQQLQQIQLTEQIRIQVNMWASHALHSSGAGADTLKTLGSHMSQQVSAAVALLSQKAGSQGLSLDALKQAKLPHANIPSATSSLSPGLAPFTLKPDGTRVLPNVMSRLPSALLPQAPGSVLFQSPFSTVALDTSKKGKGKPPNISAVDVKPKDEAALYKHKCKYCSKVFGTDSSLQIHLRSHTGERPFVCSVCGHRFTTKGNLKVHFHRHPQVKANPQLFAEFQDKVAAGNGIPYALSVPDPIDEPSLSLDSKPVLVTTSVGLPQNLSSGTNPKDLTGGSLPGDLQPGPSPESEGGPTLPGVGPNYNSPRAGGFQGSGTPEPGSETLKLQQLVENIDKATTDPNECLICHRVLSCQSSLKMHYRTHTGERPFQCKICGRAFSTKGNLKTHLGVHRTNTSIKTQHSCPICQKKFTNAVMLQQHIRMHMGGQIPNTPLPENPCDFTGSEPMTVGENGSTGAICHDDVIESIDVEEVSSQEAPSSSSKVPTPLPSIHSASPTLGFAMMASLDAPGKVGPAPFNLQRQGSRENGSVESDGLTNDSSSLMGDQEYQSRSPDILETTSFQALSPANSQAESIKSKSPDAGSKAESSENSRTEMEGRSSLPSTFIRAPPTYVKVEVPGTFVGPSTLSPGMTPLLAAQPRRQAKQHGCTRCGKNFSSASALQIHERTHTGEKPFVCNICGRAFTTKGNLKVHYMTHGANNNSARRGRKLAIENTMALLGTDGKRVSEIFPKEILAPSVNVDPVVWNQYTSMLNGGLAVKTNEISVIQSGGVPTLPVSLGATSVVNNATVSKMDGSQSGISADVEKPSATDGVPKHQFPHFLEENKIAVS
Technique: universal PBM
Form: double-stranded DNA, one strand shown
Sample: in vitro
Concentration: 600 nM
Notes: 8-mer, flanks averaged, mean of replicates
Reading: higher = stronger binding
For `CAAATCTC`, the E-score was 0.0343.
`AGAAGTAA` has an E-score of 0.255.
The E-score of `ACGAGGGG` is reported as -0.286.
`AGTCGATG` has an E-score of 0.0288.
`CCTACAAA` has an E-score of 0.0231.
`ATGGCACG` gave an E-score of -0.11.
`AGTGAAAT` gave an E-score of 0.186.
The E-score of `AGGCTGTA` is reported as 0.121.
`GGCCTTAC` has an E-score of -0.195.
`CACACTGC` has an E-score of -0.211.
With `GCAGTGCA` the E-score was -0.146.
`CAGTATCG` has an E-score of 0.103.
The E-score of `CAAGCCGA` is reported as -0.138.
The E-score of `ACTCCGAA` is reported as -0.167.
`AAGGAGTG` has an E-score of -0.0826.
`ATCTTATA` has an E-score of 0.283.
For `AACGAGCA`, the E-score was -0.0141.
The E-score of `ACACGTGG` is reported as -0.121.

Study 4
Target: Histone acetyltransferase KAT6A, both winged helices, GST fusion (KAT6A, Homo sapiens, UniProt Q92794, residues 1-181)
Technique: protein binding microarray
Form: double-stranded DNA, one strand shown
Sample: in vitro
Concentration: not given
Notes: 8-mer, flanks averaged, mean of 2 arrays, mostly near background
Reference: not given
Reading: higher = stronger binding
Construct (chain): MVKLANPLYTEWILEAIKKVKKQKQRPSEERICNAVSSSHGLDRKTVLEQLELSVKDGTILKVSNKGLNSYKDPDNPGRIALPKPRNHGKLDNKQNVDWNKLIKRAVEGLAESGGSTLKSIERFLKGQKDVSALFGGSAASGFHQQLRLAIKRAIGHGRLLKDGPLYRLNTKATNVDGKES
For `GGGGTTAC`, the E-score was 0.106.
`TACGCGGA` has an E-score of 0.281.
`AGCGCCAT` gave an E-score of 0.199.
The E-score of `GGCGCTAA` is reported as 0.22.
The E-score of `CATGGTGC` is reported as 0.00908.
For `AGTTGGAA`, the E-score was -0.0805.
The E-score of `CCGACCAC` is reported as 0.000535.
`AAAAATGA` gave an E-score of -0.078.
`CTTGGAAA` gave an E-score of -0.0231.
`ACTCCGTG` has an E-score of 0.149.
With `CACGCCGC` the E-score was 0.306.
`ATGTTAAG` gave an E-score of -0.08.
For `ATCGATCC`, the E-score was 0.045.
`ACCAAGCA` gave an E-score of -0.142.
`CTCTTCAG` gave an E-score of -0.0668.
`CCGGGCGC` gave an E-score of 0.296.
With `TCACAGAA` the E-score was -0.0784.
`ATGATGAG` has an E-score of -0.117.
For `CTCGCTAC`, the E-score was -0.0947.
With `ACACGGCG` the E-score was 0.347.
`GAACGAGC` gave an E-score of -0.0284.
`GACCAATA` gave an E-score of -0.0253.
The E-score of `GACGACCA` is reported as -0.16.
With `GACAAGAA` the E-score was -0.00998.
The E-score of `AGTAATTA` is reported as -0.114.

Excerpt of the above (study 4):
`ATGTTAAG` gave an E-score of -0.08.
For `ATCGATCC`, the E-score was 0.045.
`ACCAAGCA` gave an E-score of -0.142.
`CTCTTCAG` gave an E-score of -0.0668.
`CCGGGCGC` gave an E-score of 0.296.
With `TCACAGAA` the E-score was -0.0784.
